{"data": "Measured values from different studies", "note": "Each numbered part is a random draw from the data of one study; scales do not carry over between parts. Positions count from the first letter of the parent shown."}
{"data": "Study 1", "target": "CCNB3, cyclin fold, Cln2 fusion (human)", "technique": "yeast growth competition, sequencing", "matrix": "yeast", "notes": "strong parent motif", "reference": "not given", "reading": "higher = stronger binding", "starting sequence": "RBL2 docking peptide (human); STTRRRLFVENDS"}
{"Change": "SYTRRRLFVENDS [T2Y]", "normalised enrichment score": 0.606}
{"Change": "STIRRRLFVENDS [T3I]", "normalised enrichment score": 2.05}
{"Change": "STTRRNLFVENDS [R6N]", "normalised enrichment score": 0.302}
{"Change": "STTRRRLFVEYDS [N11Y]", "normalised enrichment score": 0.887}
{"Change": "SMTRRRLFVENDS [T2M]", "normalised enrichment score": 1.14}
{"Change": "STTRERLFVENDS [R5E]", "normalised enrichment score": 0.575}
{"Change": "STTRKRLLVENDS [R5K F8L]", "normalised enrichment score": -0.0737}
{"Change": "STTRRRLFVENDD [S13D]", "normalised enrichment score": 1.15}
{"Change": "STTRRRLFVENDM [S13M]", "normalised enrichment score": 0.868}
{"Change": "STTRRRLFVENDL [S13L]", "normalised enrichment score": 0.989}
{"Change": "STHRRRLFVENDS [T3H]", "normalised enrichment score": -0.17}
{"Change": "STTRRRLNVENDS [F8N]", "normalised enrichment score": 0.275}
{"Change": "STTRRRLFVENDE [S13E]", "normalised enrichment score": 1.27}
{"Change": "STMRRRLFVENDS [T3M]", "normalised enrichment score": 0.486}
{"Change": "STTRRRLCVENDS [F8C]", "normalised enrichment score": 0.258}
{"Change": "STSRRRLFVENDS [T3S]", "normalised enrichment score": -0.11}
{"Change": "STTRRRIFVENDS [L7I]", "normalised enrichment score": 0.546}
{"Change": "STTRRRLFVENDF [S13F]", "normalised enrichment score": 1.18}
{"data": "Study 2", "target": "Sal-like protein 4, full length isoform A (SALL4, Homo sapiens, UniProt Q9UJQ4, residues 1-1053)", "technique": "universal PBM", "molecule type": "double-stranded DNA, one strand shown", "matrix": "in vitro", "concentration": "600 nM", "notes": "8-mer, flanks averaged, mean of replicates", "reading": "higher = stronger binding", "sequence of UniProt Q9UJQ4 (whole entry, looked up)": "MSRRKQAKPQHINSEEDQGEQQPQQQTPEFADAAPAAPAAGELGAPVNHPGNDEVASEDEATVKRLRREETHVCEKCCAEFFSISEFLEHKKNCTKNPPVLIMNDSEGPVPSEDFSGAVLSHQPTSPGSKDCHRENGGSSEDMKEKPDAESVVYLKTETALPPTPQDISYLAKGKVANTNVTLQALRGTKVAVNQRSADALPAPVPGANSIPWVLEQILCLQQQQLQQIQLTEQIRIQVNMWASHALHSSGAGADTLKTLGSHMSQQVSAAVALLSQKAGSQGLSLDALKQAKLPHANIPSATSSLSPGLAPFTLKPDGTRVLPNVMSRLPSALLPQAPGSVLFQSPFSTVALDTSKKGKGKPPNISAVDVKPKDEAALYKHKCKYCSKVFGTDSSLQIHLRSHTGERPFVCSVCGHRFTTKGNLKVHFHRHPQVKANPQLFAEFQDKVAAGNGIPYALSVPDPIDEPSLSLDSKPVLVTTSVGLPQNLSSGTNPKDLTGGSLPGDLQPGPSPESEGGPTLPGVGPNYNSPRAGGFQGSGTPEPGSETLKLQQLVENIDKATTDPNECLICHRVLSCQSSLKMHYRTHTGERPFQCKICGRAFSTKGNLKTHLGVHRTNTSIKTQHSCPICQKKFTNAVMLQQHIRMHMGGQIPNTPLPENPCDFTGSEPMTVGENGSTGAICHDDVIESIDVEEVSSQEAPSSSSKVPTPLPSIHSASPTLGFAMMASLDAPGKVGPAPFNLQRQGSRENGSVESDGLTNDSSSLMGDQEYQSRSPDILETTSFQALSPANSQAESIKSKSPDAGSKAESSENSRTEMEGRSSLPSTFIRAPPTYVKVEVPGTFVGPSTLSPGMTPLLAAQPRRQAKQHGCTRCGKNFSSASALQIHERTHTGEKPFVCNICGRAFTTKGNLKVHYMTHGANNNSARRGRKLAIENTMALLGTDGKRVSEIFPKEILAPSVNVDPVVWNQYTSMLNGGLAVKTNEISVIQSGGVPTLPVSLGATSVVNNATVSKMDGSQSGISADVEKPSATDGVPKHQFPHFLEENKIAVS"}
{"Sequence": "ATCTGTGA", "E-score": 0.0796}
{"Sequence": "CCTTGCAC", "E-score": -0.124}
{"Sequence": "ATTAATTA", "E-score": 0.399}
{"Sequence": "AATTAGTA", "E-score": 0.38}
{"Sequence": "ATTCAGAC", "E-score": 0.0989}
{"Sequence": "TATCGAGA", "E-score": 0.131}
{"Sequence": "AGGTCACT", "E-score": -0.187}
{"Sequence": "CTCCCGAC", "E-score": -0.213}
{"Sequence": "CCCCTCAG", "E-score": -0.313}
{"Sequence": "CCTAGTTC", "E-score": -0.0129}
{"Sequence": "AATAGTCT", "E-score": 0.283}
{"Sequence": "ACGACACC", "E-score": -0.156}
{"Sequence": "CACATGAC", "E-score": -0.00409}
{"Sequence": "CCCGCCGA", "E-score": -0.348}
{"Sequence": "CTAGGTGC", "E-score": -0.248}
{"Sequence": "ACCCTGGG", "E-score": -0.328}
{"Sequence": "TAAAGGTA", "E-score": 0.208}
{"Sequence": "TAACGAAA", "E-score": 0.34}
{"Sequence": "GTACTTAA", "E-score": 0.148}
{"Sequence": "TAATGGTA", "E-score": 0.176}
{"Sequence": "ACGAGCTC", "E-score": -0.233}
{"Sequence": "AACTATCC", "E-score": -0.0604}
{"Sequence": "CGAAGTCG", "E-score": -0.0791}
{"data": "Study 3", "target": "Histone acetyltransferase KAT6A, winged helix 1, GST fusion (KAT6A, Homo sapiens, UniProt Q92794, residues 1-85)", "technique": "protein binding microarray", "molecule type": "double-stranded DNA, one strand shown", "matrix": "in vitro", "concentration": "not given", "notes": "8-mer, flanks averaged, mean of 2 arrays, mostly near background", "reference": "not given", "reading": "higher = stronger binding", "Construct (chain)": "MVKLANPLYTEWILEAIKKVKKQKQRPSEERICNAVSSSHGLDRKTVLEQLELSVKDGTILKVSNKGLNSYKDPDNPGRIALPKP"}
{"Sequence": "ACGGGTTG", "E-score": 0.332}
{"Sequence": "GATTCCAA", "E-score": -0.199}
{"Sequence": "CATTGTGC", "E-score": 0.0478}
{"Sequence": "AACGTTCG", "E-score": -0.0109}
{"Sequence": "GCCAGAAA", "E-score": -0.227}
{"Sequence": "ATTGATCC", "E-score": 0.0517}
{"Sequence": "CAGTAGAG", "E-score": -0.167}
{"Sequence": "CGATAGCG", "E-score": 0.302}
{"Sequence": "AAGGCATA", "E-score": -0.204}
{"Sequence": "GTAGCCGA", "E-score": 0.104}
{"Sequence": "GTGCACGA", "E-score": -0.194}
{"Sequence": "ATCGGAGA", "E-score": -0.0431}
{"Sequence": "CGCATAAG", "E-score": 0.13}
{"Sequence": "AGATTTGG", "E-score": -0.213}
{"Sequence": "ATTAGTAG", "E-score": -0.12}
{"Sequence": "AAATTTCG", "E-score": -0.036}
{"Sequence": "CGGGTTGA", "E-score": 0.278}
{"Sequence": "CCTATCGA", "E-score": -0.193}
{"Sequence": "ACCTTAAG", "E-score": -0.145}
{"Sequence": "GCTGTAAC", "E-score": 0.0496}
{"Sequence": "GAGTACGC", "E-score": 0.107}
{"Sequence": "CAGTTCAC", "E-score": -0.0127}
{"Sequence": "AGTATGCA", "E-score": -0.13}
{"Sequence": "CCCAATCA", "E-score": -0.17}
{"Sequence": "AAGCCTCT", "E-score": -0.208}
{"data": "Study 4", "target": "ABI1, truncated, D143A, DHFR fusion (Arabidopsis thaliana)", "technique": "DHFR PCA, deep sequencing", "matrix": "yeast", "notes": "methotrexate growth selection, single substitutions", "together with": "(+)-ABA 200 µM", "reference": "wild-type fitted maximum", "reading": "higher = stronger binding", "starting sequence": "PYL1, truncated, DHFR fusion (Arabidopsis thaliana); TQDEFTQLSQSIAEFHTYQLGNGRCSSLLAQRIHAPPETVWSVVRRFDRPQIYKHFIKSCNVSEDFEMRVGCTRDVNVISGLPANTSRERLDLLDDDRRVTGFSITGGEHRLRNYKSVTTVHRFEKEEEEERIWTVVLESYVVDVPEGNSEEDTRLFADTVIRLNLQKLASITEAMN; partner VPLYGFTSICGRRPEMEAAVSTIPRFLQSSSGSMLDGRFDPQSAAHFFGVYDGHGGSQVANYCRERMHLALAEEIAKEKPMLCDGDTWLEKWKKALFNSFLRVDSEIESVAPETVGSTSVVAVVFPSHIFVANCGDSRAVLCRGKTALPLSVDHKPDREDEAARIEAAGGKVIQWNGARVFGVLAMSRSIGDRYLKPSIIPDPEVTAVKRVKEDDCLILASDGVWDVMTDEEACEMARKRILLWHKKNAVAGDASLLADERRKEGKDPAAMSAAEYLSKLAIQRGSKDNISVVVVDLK"}
{"Change": "L94D", "relative binding score [%]": -2.97}
{"Change": "S171Q", "relative binding score [%]": 104}
{"Change": "A158R", "relative binding score [%]": -4.2}
{"Change": "G21K", "relative binding score [%]": 98.8}
{"Change": "E109R", "relative binding score [%]": 87.2}
{"Change": "F66G", "relative binding score [%]": 102}
{"Change": "E139G", "relative binding score [%]": 9.26}
{"Change": "I12L", "relative binding score [%]": 80.4}
{"Change": "K58R", "relative binding score [%]": 97.5}
{"Change": "V76R", "relative binding score [%]": -0.671}
{"Change": "Y141W", "relative binding score [%]": 54.5}
{"Change": "E14P", "relative binding score [%]": 47.9}
{"Change": "R32V", "relative binding score [%]": 98}
{"Change": "T73N", "relative binding score [%]": 95.7}
{"Change": "Q51Y", "relative binding score [%]": 98.3}
{"Change": "V161H", "relative binding score [%]": 14.8}
{"data": "Study 5", "target": "RNA binding protein fox-1 homolog 2, RRM domain, GST-SBP tag (RBFOX2, Homo sapiens, UniProt O43251-10, residues 100-194)", "technique": "RNA Bind-n-Seq", "molecule type": "RNA", "matrix": "in vitro", "concentration": "365 nM", "notes": "natural RNA segment, single round, ends assumed", "reference": "no-protein control", "reading": "higher = stronger binding", "shared flanks, not repeated": "GGGAGUUCUACAGUCCGACGAUC … UGGAAUUCUCGGGUGCCAA", "Residues (chain)": "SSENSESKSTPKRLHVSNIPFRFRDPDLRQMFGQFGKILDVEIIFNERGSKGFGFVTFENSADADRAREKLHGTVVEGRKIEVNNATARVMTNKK"}
{"Sequence": "CUCUUCUUGCUGUCUCUCUCCUUUUAGCAGUCACUUCUGAGAAGUAAAGAACCUGACUUAGUGCUGGAGUUUGUGCUUGGUUUAUCUUCUUUGCGAUCUCCAAGCUAAGC", "RBNS enrichment (R)": 0.321}
{"Sequence": "AAAGGAUGAUGGAGCUUCCUGGUGUCGGGUGAACAUGUUUUAAAAACUCAUUGUUCUAGUGAAGAUUAUGUUAAGCAAGCCUAAAAAAAGAUGACAACCAGUUCAUACAC", "RBNS enrichment (R)": 0.569}
{"Sequence": "AUUGCAUGGCCGAGCAUAACUGCCCGCCCCACUCCGACCUAGGAAGAAUUCAACUGGCUGAACCUUCAUACCCUGACUGAGAACUAGUGUCCAAUAAAAGGUGACUGGUU", "RBNS enrichment (R)": 0.499}
{"Sequence": "AACAAACUUUCUGAGGCUGGGUCAGCUUGCCUUAUAGUACUCCUCUCCUGCUAUGCCAACCUCAGGUGACCUGCUACCAUCCUCUAUACCUUCCUCCGCCAUCUGACUUC", "RBNS enrichment (R)": 0.98}
{"Sequence": "UUUGGCAAAACGCUACUUAAUCCAAUGGGUUCUGUACAGUAGAUUUUGCAGAUGUAAUAAACUUUAAUAUAAAGGAGUCCUAUGAACUCUACUGCUUCUGCUUCUUCUUC", "RBNS enrichment (R)": 0.339}
{"Sequence": "AUAAUGAUAAUUUAUUAGUCUUUCUGUUAUUUAAAGAAUAAAAACAUGCUUAUAAAAGACUUUUAAUGAAAUGUUGCCUUUUUAAAAUAAUUAUACUUGCACAUGAAAAU", "RBNS enrichment (R)": 2.07}
{"Sequence": "CUGGUCUGUGUCCUUUUGCCUUAGUCCAUGCAUACUCAUUAAGGAAAAAAAGUACCAUUGUGCUAAACGCUACUGAGACUAACCAGGAAACCCUAACGAUGAAGAUGGUC", "RBNS enrichment (R)": 0.357}
{"Sequence": "UUUUUAGUAUUUUAACAUUUAUUUUAAUCCUGAAGACACUUUUUUGAUUGUGUUUCGUAAGAGACAACAUGGCCUCCUAAGGUGCAAUCCUGCCGCUAUAGUGAGCUAAU", "RBNS enrichment (R)": 0.354}
{"Sequence": "GACAUUUUGCUAGGAAGUGACCGAGUCUAGGAAUGCUUUUAUUCAAGACACCAAAUUCCAAACUUCUAAAUGUUGGAAUUUUCAAAAAUUGUGUUUAGAUUUUAUGAAAA", "RBNS enrichment (R)": 0.424}
{"Sequence": "UGUGUGAUCAGACCAUUGAAACCACUAAUUCUGUCCCCAGGAGACUUGGCUGUGUGUGUGAGUGGCUUACCCUUCCUCAUCUUCCCUUCCCAAGGCACAGAGCAAUGGGG", "RBNS enrichment (R)": 0.39}
{"Sequence": "GCUAGUGGAUAUUGGAGUUACAUGAGCUACGUGUUAAUAUUCAGUCUCCAGAAUAAACGUCCCAGCGUUGCCCUGACCUGGCUGGAGGGCGCAUUGCUGUCUGUGCCUGU", "RBNS enrichment (R)": 0.459}
{"Sequence": "CCACCCGUGACUGUAAGAAUGCUCUCUGGGAGGACUUCCACCGGGGCAGAGCAGGCUGCCCAGCCGAAGCGGGAAGGGCAUGUUGGGCAAGCUGCUGGAGCGACUGAUGU", "RBNS enrichment (R)": 1.61}
{"note": "Some of these lines once more (study 3):"}
{"Sequence": "ATTAGTAG", "E-score": -0.12}
{"Sequence": "CATTGTGC", "E-score": 0.0478}
{"Sequence": "AGATTTGG", "E-score": -0.213}
{"Sequence": "CGCATAAG", "E-score": 0.13}
{"Sequence": "GAGTACGC", "E-score": 0.107}
{"Sequence": "AGTATGCA", "E-score": -0.13}
{"Sequence": "CAGTTCAC", "E-score": -0.0127}
{"Sequence": "GCCAGAAA", "E-score": -0.227}
{"Sequence": "CGATAGCG", "E-score": 0.302}
{"Sequence": "ATCGGAGA", "E-score": -0.0431}
{"Sequence": "AAGCCTCT", "E-score": -0.208}
